# Measured values from different studies.
# Lines come from different studies, so protocols differ. ± gives the spread as reported.
Compound,organism,assay,system,conditions,scale,endpoint,value
COc1ccc(NC(=O)N2CCCN3CCC(c4ccc(C#Cc5ccccn5)cc4)C3C2)cc1 (centres unmarked),Toxoplasma gondii,parasite growth,"HFF, RH type I luciferase",,,EC90,960 ± 60 nM
CC(=O)N[C@H](CCCCN)C(=O)N[C@H](CC(C)C)C(=O)N[C@H](CCCCN)C(=O)N[C@H](CO)C(=O)N[C@H](CC(C)C)C(=O)N[C@H](CC(C)C)C(=O)N[C@H](CCCCN)C(=O)N[C@@H](C(=O)N[C@H](CC(C)C)C(=O)N[C@H](CO)C(=O)N[C@H](CCCCN)C(=O)N[C@H](C)C(=O)N[C@H](CCCCN)C(=O)N[C@H](CCCCN)C(=O)N[C@H](CCCCN)C(=O)N[C@H](CCCCN)C(=O)N[C@H](CC(C)C)C(=O)N[C@H](CCCCN)C(=O)N[C@@H](C(=O)N[C@H](CC(C)C)C(=O)N[C@H](CC(C)C)C(=O)N[C@H](CCCCN)C(=O)N[C@H](C)C(=O)N[C@H](CC(C)C)C(=O)N[C@H](CO)C(=O)N[C@H](CCCCN)C(N)=O)[C@H](C)O)[C@H](C)O,Acinetobacter baumannii,,11 isolates,"24 h, 37 °C",,MIC geometric mean,0.4 µM
C[C@@H]1C[C@H](Nc2ccccc2)c2cc(F)ccc2N1C(=O)c1ccc(C(F)(F)F)cc1,Aedes albopictus,,,"1 µM, second-instar larvae",,logit mortality,-0.31
Cc1c2c(cc3oc(=O)cc(-c4ccc(O)cc4)c13)C(=O)c1cccc(O)c1C2=O,Bacillus cereus,,MTCC 1306,100 µg/disc,,zone of inhibition,8 mm
CN[C@H](CC(C)C)C(=O)N[C@H]1C(=O)N[C@@H](CC(N)=O)C(=O)N[C@H]2C(=O)N[C@H]3C(=O)N[C@H](C(=O)N[C@H](C(=O)O)c4cc(O)cc(O)c4-c4cc3ccc4O)[C@H](O)c3ccc(c(Cl)c3)Oc3cc2cc(c3O[C@@H]2O[C@H](CO)[C@@H](O)[C@H](O)[C@H]2O[C@H]2C[C@](C)(NCc3ccc(C(=O)OCCCCCCN(Cc4ccccn4)Cc4ccccn4)cc3)[C@H](O)[C@H](C)O2)Oc2ccc(cc2Cl)[C@H]1O,Bacillus subtilis,"protein synthesis, refers to: YtrB",168,"concentration not given, 10 min, at peak effective concentration",relative to: untreated,regulation factor,3.17 ± 0.4
C[C@@H](c1ccn(Cc2ccc(I)cc2)n1)[C@](O)(Cn1cnnn1)c1ccc(F)cc1F,Candida krusei,growth curve,"4946, YPD medium",0.25 µg/mL,,growth inhibition,inhibited
Cc1cc(=O)oc2cc3c(c(C)c12)C(=O)c1c(O)cccc1C3=O,Bacillus cereus,,MTCC 1306,100 µg/disc,,zone of inhibition,8 mm
O=C(CCNC(=O)c1ccsc1)Nc1cccc(Oc2ccc(Cl)cc2)c1,hepatitis B virus,RT-qPCR,HepG2.2.15.7,10 µM,relative to: control,precore mRNA level,0.84 fold
O=C1CC(c2ccc(O)cc2)Oc2cc(O)cc([O][Ga+][O]c3cc(O)cc4c3C(=O)CC(c3ccc(O)cc3)O4)c21 (centres unmarked),Pseudomonas aeruginosa,ICP-MS,,,,bacterial iron content,decreased
COC1C=COC2(C)Oc3c(C)c(O)c4c(c3C2=O)C2=NC3(CCN(CC(C)C)CC3)NC2=C(NC(=O)C(C)=CC=CC(C)C(O)C(C)C(O)C(C)C(OC(=O)Nc2cccnn2)C1C)C4=O (centres unmarked),Mycobacteroides abscessus,,76 clinical isolates,3 subspecies,,MIC90,0.4 µM
Cc1ncncc1-c1ccc(C(=O)N2CC[C@H](C(=O)Nc3cc(F)c(F)c(F)c3)C2)[nH]1,hepatitis B virus,refers to: intracellular HBV DNA,HepG2.2.15,"0.1 µM, 144 h",relative to: vehicle,HBV DNA remaining,91%
O=C(Nc1ccc(F)cc1F)N1CCCN2CCC(c3ccc(C#Cc4ccccc4)cc3)C2C1 (centres unmarked),Toxoplasma gondii,parasite growth,"HFF, RH type I luciferase",,,EC90,5420 nM
C#CCN1CCc2c3n(c4ccccc24)C(=O)C(=C)C3(C(=O)OC)C1 (centres unmarked),hepatitis B virus,HBsAg secretion,HuH7-NTCP,5 µM,,inhibition,40 to 50%
Cc1ccc(S(=O)(=O)Nn2c3c(cc(-c4nc5ccccc5s4)c2=O)CCCCCC3)cc1,Coxsackievirus B4,"viral replication, plaque reduction",BGM cells,,relative to: CC50 over IC50,selectivity index,2.77
CC[P+](CC)(CC)[Au-][S+](C[C@H]1O[C@H](O[C@H]2O[C@H](COC(C)=O)[C@@H](OC(C)=O)[C@H](OC(C)=O)[C@H]2OC(C)=O)[C@H](OC(C)=O)[C@@H](OC(C)=O)[C@@H]1OC(C)=O)[Au-][P+](CC)(CC)CC.[Cl-],Enterobacter cloacae,,NCTC 13405,concentration not given,relative to: auranofin,fold activity enhancement,8
O=C(Nc1ccccc1)N1CCCN2CCC(c3ccc(C#Cc4cccnn4)cc3)C2C1 (centres unmarked),Toxoplasma gondii,parasite growth,"HFF, RH type I luciferase",,,EC90,4170 nM
Cc1cc(N2CC[C@@](C#N)(C3(C)CC3)C2=O)cc(C(=O)NCc2cc(F)cc(-c3cnn(C)c3)c2)n1,Plasmodium falciparum,,"Pf3D70087/N9, humanized SCID mouse","10 mg/kg, day 7 postinfection, 4-day treatment",,parasitemia inhibition,80%
COc1ccc(NC(=O)N2CCCN3CCC(c4ccc(C#CC5CC5)cc4)C3C2)cc1 (centres unmarked),Toxoplasma gondii,parasite growth,"HFF, RH type I luciferase",,,EC90,> 10000 nM
C[C@@H]1C[C@H](Nc2ccccc2)c2cc(F)ccc2N1C(=O)c1ccc(C#N)cc1,Aedes albopictus,,,"1 µM, second-instar larvae",,logit mortality,0.47
Cc1nccc2c3ccccc3n(Cc3cccnc3)c12,Echinococcus granulosus s.s.,,"mouse, Echinococcus granulosus infection","oral, 50 mg/kg/day, 28 days",,cyst weight,4.75 ± 1.31 g
CC(C)S(=O)(=O)c1cccc(O)c(=O)c1O,hepatitis B virus,,HepDES19,,relative to: CC50 over EC50,selectivity index,25
CC(C)C[C@H](NC(=O)OCc1ccccc1)C(=O)N[C@H](C=O)C[C@H]1CCNC1=O,human rhinovirus 51,viral replication,WI-38,37 °C,,EC50,700 ± 280 nM
Brc1ccc(-c2c[nH]c(-c3ccccn3)n2)cc1,Schistosoma mansoni,,female worms,100 µM,,worm killing,0%
O=C(N[C@@H](CC1CCCCC1)C(=O)N[C@@H](C[C@H]1CCNC1=O)C(=O)C(=O)NC1CC1)OCc1cccc(Cl)c1,human rhinovirus 1B,viral replication,WI-38,,,EC90,450 nM
C[N+]1=C2C=C(NCCc3c[nH]c4ccccc34)C(=O)c3[nH]cc(c32)CC1,Babesia divergens,"intraerythrocytic growth, SYBR Green I",Rouen 1987,,,IC50,< 2 nM
C#CCN1CCc2c(n(C(=C)C(=O)OC)c3ccccc23)C(C(=O)OC)C1 (centres unmarked),hepatitis B virus,"cccDNA level, qPCR",HuH7-NTCP,5 µM,,inhibition,~80%
C[C@@H]1C[C@H](Nc2ccccc2)c2cc(F)ccc2N1C(=O)c1ccc(N)cc1,Aedes albopictus,,,"1 µM, second-instar larvae",,logit mortality,-1.24
O=S(=O)(c1ccccc1)N(CCc1nnc(S)o1)c1ccc(Cl)cc1,Colletotrichum capsici,cup plate method,,100 µg/mL,relative to: fluconazole,relative inhibition,127%
Cc1ncc([N+](=O)[O-])n1CCOCc1nnc(SCC(=O)c2ccc([N+](=O)[O-])cc2)o1,Enterobacter cloacae,,DMSO,"60 µg/mL, 24 h, 37 °C",,inhibition zone diameter,15 to 20 mm
Cc1c2c(cc3oc(=O)cc(-c4ccccc4)c13)C(=O)c1cccc(O)c1C2=O,Bacillus cereus,,MTCC 1306,100 µg/disc,,inhibition zone diameter,8 mm
CC(=O)OC[C@H]1O[C@@H]([Se][C@@H]2O[C@H](COC(C)=O)[C@H](OC(C)=O)[C@H](OC(C)=O)[C@H]2OC(C)=O)[C@H](OC(C)=O)[C@@H](OC(C)=O)[C@H]1OC(C)=O,Trypanosoma brucei brucei,,bloodstream form,"5 µM, 24 h, 1 % DMSO",,viability,96.4 ± 17.7%
c1ccc(-c2nc(-c3ccc4ccccc4c3)c[nH]2)cc1,Schistosoma mansoni,,adult male worms,50 µM,,worm killing,0%
Cc1ccc(O)c(C=NNC(=N)NO)n1,human mastadenovirus C,plaque reduction,"A549, McEwen",,,inhibitory concentration,< 100 µM
C[C@@H]1C[C@H](Nc2ccccc2)c2cc(F)ccc2N1C(=O)c1ccc(C#N)c(Cl)c1,Aedes albopictus,,,"1 µM, second-instar larvae",,logit mortality,0.36
CC(C)C[C@H](NC(=O)OCc1cccc(Cl)c1)C(=O)N[C@@H](C[C@H]1CCNC1=O)C(=O)C(=O)NC1CC1,human rhinovirus 51,viral replication,WI-38,37 °C,,EC50,150 ± 80 nM
Cc1ccc(NC(=O)N2CCCN3CCC(c4ccc(C#CC5(O)CCOCC5)cc4)C3C2)cc1 (centres unmarked),Toxoplasma gondii,parasite growth,"HFF, RH type I luciferase",,,EC90,4880 ± 730 nM
C[C@@H]1C[C@H](Nc2ccccc2)c2cc(F)ccc2N1C(=O)c1ccc(Cl)cc1,Aedes albopictus,,,"1 µM, second-instar larvae",,logit mortality,0.32
COc1ccc(NC(=O)N2CCCN3CCC(c4ccc(C#CC(C)C)cc4)C3C2)cc1 (centres unmarked),Toxoplasma gondii,,"HFF, RH (type I)",concentration not given,,growth inhibition,inactive
CC(=O)[O-].O.[Cu+2].[O-]c1ccc(Br)cc1C=NCCN1CCOCC1,Bacillus cereus,,,20 µL of 100 µM per disc,,inhibition zone diameter,14 mm
Nc1ccn(C[C@@H](CO)OCP(=O)(O)OCCCS(=O)(=O)CCCCCCCCCCCCCC2CCC2)c(=O)n1,human betaherpesvirus 5,,standard isolates,,,EC90,< 0.1 nM
C#CCN1CCC23C(=C(C(=O)OC)CC(C(=O)OC)C12)Nc1ccccc13 (centres unmarked),hepatitis B virus,HBsAg secretion,HuH7-NTCP,5 µM,,inhibition,40 to 50%
Cc1ncc([N+](=O)[O-])n1CCOCc1nnc(SCC(=O)c2ccc(Cl)cc2)o1,Enterobacter cloacae,,DMSO,"60 µg/mL, 24 h, 37 °C",,inhibition zone diameter,≥ 20 mm
COc1ccc(-c2nccc3c4ccccc4n(Cc4ccccc4)c23)cc1,Echinococcus granulosus,eosin staining,sensu stricto protoscoleces,"40 µM, 48 h, 10% fetal bovine serum",,viability,85.8 ± 3.02%
O=C[C@H](C[C@H]1CCNC1=O)NC(=O)[C@H](CC1CCCCC1)NC(=O)OCc1cccc(Cl)c1,human rhinovirus 51,viral replication,WI-38,37 °C,,EC50,160 ± 60 nM

# For quick reference, copied from above:
Compound,organism,assay,system,conditions,scale,endpoint,value
COc1ccc(NC(=O)N2CCCN3CCC(c4ccc(C#CC(C)C)cc4)C3C2)cc1 (centres unmarked),Toxoplasma gondii,,"HFF, RH (type I)",concentration not given,,growth inhibition,inactive
C[C@@H](c1ccn(Cc2ccc(I)cc2)n1)[C@](O)(Cn1cnnn1)c1ccc(F)cc1F,Candida krusei,growth curve,"4946, YPD medium",0.25 µg/mL,,growth inhibition,inhibited
CN[C@H](CC(C)C)C(=O)N[C@H]1C(=O)N[C@@H](CC(N)=O)C(=O)N[C@H]2C(=O)N[C@H]3C(=O)N[C@H](C(=O)N[C@H](C(=O)O)c4cc(O)cc(O)c4-c4cc3ccc4O)[C@H](O)c3ccc(c(Cl)c3)Oc3cc2cc(c3O[C@@H]2O[C@H](CO)[C@@H](O)[C@H](O)[C@H]2O[C@H]2C[C@](C)(NCc3ccc(C(=O)OCCCCCCN(Cc4ccccn4)Cc4ccccn4)cc3)[C@H](O)[C@H](C)O2)Oc2ccc(cc2Cl)[C@H]1O,Bacillus subtilis,"protein synthesis, refers to: YtrB",168,"concentration not given, 10 min, at peak effective concentration",relative to: untreated,regulation factor,3.17 ± 0.4
O=S(=O)(c1ccccc1)N(CCc1nnc(S)o1)c1ccc(Cl)cc1,Colletotrichum capsici,cup plate method,,100 µg/mL,relative to: fluconazole,relative inhibition,127%
